Assay results pooled from the literature.
Each numbered part is a random draw from the data of one study; scales do not carry over between parts. Positions count from the first letter of the parent shown.

Study 1 — target: CCNB2, cyclin fold, Cln2 fusion (human); technique: yeast growth competition, sequencing; medium: yeast; notes: weak parent motif; relative to: not given; direction: higher = stronger binding
Starting sequence: E2F1 docking peptide (human); PPVKRRLDLETDH
Change | normalised enrichment score
PPVKRYLDLETDH [R6Y] | 0.199
PPVKRRLDLETDY [H13Y] | 0.808
PPVKRRLDLLTDH [E10L] | 0.788
SPVKRRLDLETDH [P1S] | 0.0665
PPVKRRNDLETDH [L7N] | -0.0108
PPVLRRLDLETDH [K4L] | -0.211
TPVKRRLDLETDH [P1T] | 0.219
PPVKRRLMLETDH [D8M] | 0.418
PPVKRRWDLETDH [L7W] | 0.246
PPVKRRLDLETDT [H13T] | 0.445
PPVKRRLDLETDW [H13W] | 0.45

Study 2 — technique: Sort-seq; item: YFP reporter; medium: E. coli; notes: PhoQ-PhoP variant library; together with: 10 µM Mg2+; relative to: high Mg2+ state; direction: higher = stronger signaling
Substance: PhoQ, residues 284 288 289 292 302 303 QWGLFV
target | fold induction
PhoP, residues 12 14 15 18 19 TQCLL (Escherichia coli, UniProt P23836) | 1.36
PhoP, residues 12 14 15 18 19 ICWRQ (Escherichia coli, UniProt P23836) | 0.977
PhoP, residues 12 14 15 18 19 VHTVL (Escherichia coli, UniProt P23836) | 8.99

Study 3 — technique: protein binding microarray; molecule type: double-stranded DNA, one strand shown; medium: in vitro; concentration: not given; relative to: not given; direction: higher = stronger binding
Target: Histone acetyltransferase KAT6A, winged helix 1, GST fusion (KAT6A, Homo sapiens, UniProt Q92794, residues 1-85)
Notes: 8-mer, flanks averaged, mean of 2 arrays, mostly near background
Residues (chain): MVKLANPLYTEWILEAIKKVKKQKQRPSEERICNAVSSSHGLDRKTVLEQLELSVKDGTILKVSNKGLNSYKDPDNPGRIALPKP
Strand | E-score
ACCCACAT | -0.227
GTCATTCA | -0.1
AGCGATGA | 0.0659
ACGCACTA | 0.171
ATAGCTTG | -0.214
AGCACATG | -0.0881
GCAGCCCA | -0.0264
TAGCAGAA | -0.277
CACCGCTG | 0.149
ATAAGTGA | -0.214
AAATAAGC | -0.112
TAAGAAGA | -0.0112

Study 4 — technique: RNA Bind-n-Seq; molecule type: RNA; medium: in vitro; concentration: 365 nM; relative to: no-protein control; direction: higher = stronger binding
Target: RNA binding protein fox-1 homolog 2, RRM domain, GST-SBP tag (RBFOX2, Homo sapiens, UniProt O43251-10, residues 100-194)
Notes: natural RNA segment, single round, ends assumed
Shared flanks, not repeated: GGGAGUUCUACAGUCCGACGAUC … UGGAAUUCUCGGGUGCCAA
Construct (chain): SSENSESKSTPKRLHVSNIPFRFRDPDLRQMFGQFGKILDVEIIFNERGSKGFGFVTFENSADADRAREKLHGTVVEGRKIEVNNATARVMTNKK
Strand | RBNS enrichment (R)
CCUAUUUCUACUUUUAUUUUGUAUUUCUGGUCUGUGAAAACAAUUUAAUAAAGGGAAAUGACUUUGGAAACGAUGUCCUUAUGUCUCCUUUCCCAAUUUGCAUGUGGUGU | 17.9
GCAGGCAACGGGCUACAGCUUUAUUAGUGGUUCUCUAACUGUGGUCUCCUUGGGCCAAGCAAUUUCUUUAAAGGAAAAGUUGAUUAUGUAUGUGGGGUGCCAGGACCACU | 1.49
GGGGGAGCUUUGGACACAGGACCAGUUUGGAAAAGGGUCAGGUAAGGGUUUCCACUCUGCACAUUGUAGAGGGAACACUCUGUAGGCCCAUGGGUCCCUUACUAGAGAGG | 3.16
ACAUGCAGUAUAGUAGGUCCCUGACCUUUACUUGCCUGAAAUCAGCAGUUAUCAAUAAUUCCCACCCAGGAAACUUUUAUUUAUUGUUUUUUAAAGAUAAAACUGCACAG | 0.414
AACUGAAGUUUGCAGAUUCGGAUGCUGACGGGGACUGAGGCCAGCGUGUCCCAGCCCAUGCCCCUCUGUCUUCGUGGAGAGUGUUGUGUUGAGCCCAUUCAGUAGCCGAG | 0.26
GUAUGUCAAUAAAGCAAAUACUUACUGUUUUGUUUCUAUUAAUGAUUCCCAAACCUUGUUGCAAGUUUUUGCAUUGGCAUCUUUGGAUUUCAGUCUUGAUGUUUGUUCUA | 1.21
CUCUGUGUAGCUUUGCUUAUCCUGGAACUCGAUUUGUUGACCAGGCUGGCCUUGAAUUCUCAAAAAUCCAUCUGCCUCUGCCUUUGCCUCCCCAGGCACCACUACCACCU | 0.418
CCUCUAAGACAUAUGUAUUUCACACUAGAUGGCGUCGGACAUUGCCAUAUCUCCUGUGGCACCUAGGCAGCCCAAUCUCAGGGUUAGUUUUUUCCAGGGAAAACAAUGUG | 0.38

Excerpt of the above (study 4):
Strand | RBNS enrichment (R)
GCAGGCAACGGGCUACAGCUUUAUUAGUGGUUCUCUAACUGUGGUCUCCUUGGGCCAAGCAAUUUCUUUAAAGGAAAAGUUGAUUAUGUAUGUGGGGUGCCAGGACCACU | 1.49
GUAUGUCAAUAAAGCAAAUACUUACUGUUUUGUUUCUAUUAAUGAUUCCCAAACCUUGUUGCAAGUUUUUGCAUUGGCAUCUUUGGAUUUCAGUCUUGAUGUUUGUUCUA | 1.21
